# Measured values pooled from the literature.
# Lines come from different studies, so protocols differ. ± marks the error that the study gave.
Compound,tested on,test,system,setting,scale,measurement,value
[C-]#[O+].[C-]#[O+].[C-]#[O+].[C-]#[O+].[C-]#[O+].[C-]#[O+].[Cl-].[Cl-].[Re+].[Re+].c1cnc(-c2ncccn2)nc1,calf thymus DNA,ethidium bromide displacement,,"DNA 120 µM, 50% quenching, together with: ethidium bromide 8 µM",,apparent binding constant,1.8e+06 M⁻¹
COC(=O)c1cnc(-c2cnccn2)cc1C(=O)OC.COC(=O)c1cnc(-c2cnccn2)cc1C(=O)OC.[Cl-].[Cl-].[Cl-].[Cl-].[Cu+2].[Cu+2],calf thymus DNA,ethidium bromide displacement,,,,quenching rate constant,1.67e+11 M⁻¹ s⁻¹
COc1cc(CNC(=O)C[C@H](C)CCC=C(C)C)ccc1OCc1cn(-c2ccc(Cl)cc2Cl)nn1,KM12,SRB,,"10 µM, 48 h",,growth percent,93.1%
O=C(NC1CCCCC1)N1CCCN2CCC(c3ccc(C#Cc4ccccc4)cc3)C2C1 (stereo not shown),Toxoplasma gondii,parasite growth,"HFF, RH type I luciferase",,,EC90,> 10 µM
CC[C@H]1[C@@H](O)[C@@H]2[C@H](CC[C@]3(C)[C@@H]([C@H](C)CCOS(=O)(=O)[O-])CC[C@@H]23)[C@@]2(C)CC[C@@H](O)C[C@@H]12.[Na+],,,"ob/ob NASH mice, liver","oral, 3 mg/kg once daily, 8 wk",,liver triglycerides,229 ± 15.4 mg/g tissue
COc1cc(CNC(=O)C[C@H](C)CCC=C(C)C)ccc1OCc1cn(-c2cccc(C(F)(F)F)c2)nn1,SK-MEL-5 melanoma cells,SRB,,"10 µM, 48 h",,growth percent,78.8%
O=C(N[C@@H](CC1CCCCC1)C(=O)N[C@@H](C[C@H]1CCNC1=O)C(=O)C(=O)NC1CC1)OCc1cccc(Cl)c1,human rhinovirus 1B,viral replication,WI-38,37 °C,,EC50,0.08 ± 0.01 µM
O=Cc1c(O)ccc2ccccc12,HUVEC,"RNA sequencing, measured: NKAPL",,"75 µM, 24 h",reference: DMSO,log2 fold change,2.84
COc1cc(CNC(=O)C[C@H](C)CCC=C(C)C)ccc1OCc1cn(-c2ccc(F)cc2)nn1,CAKI-1,SRB,,"10 µM, 48 h",,growth percent,81.8%
Cc1cc(O)c(C=O)c2c1C(=O)Oc1c(CO)c(O)c3c(c1O2)C(O)OC3=O (stereo not shown),,,"streptozotocin-induced diabetic male rats, plasma","5 mg/kg, 5 weeks",,fasting plasma glucose,243 ± 6.44 mg/dL
COc1ccc(NC(=O)N2CCCCN3[C@H](CN(C)C)[C@H](c4ccc(C#Cc5ccccc5)cc4)[C@@H]3C2)cc1,Toxoplasma gondii,"parasite growth, luciferase","HFF, RH type I luciferase",,,EC90,0.0987 µg/mL
COc1cc(CNC(=O)C[C@H](C)CCC=C(C)C)ccc1OCc1cn(-c2cccc(Cl)c2)nn1,HOP-92,SRB,,"10 µM, 48 h",,growth percent,71.9%
CC(=O)OC[C@H]1O[C@@H](Sc2sc(C(=O)c3ccc(C)cc3)c(N)c2-c2nc3ccccc3s2)[C@H](OC(C)=O)[C@@H](OC(C)=O)[C@H]1OC(C)=O,KM12,SRB,,"10 µM, 48 h",reference: untreated,growth,105%
COc1cc(CNC(=O)C[C@H](C)CCC=C(C)C)ccc1O,SK-MEL-5 melanoma cells,SRB,,"10 µM, 48 h",,growth percent,97.7%
CCCCCCCCCCCCCCCC(=O)NCCCC[C@H](N)C(=O)N[C@@H](CC(=O)O)C(=O)N[C@H](C(=O)N[C@@H](Cc1c[nH]cn1)C(=O)N[C@@H](Cc1ccccc1)C(=O)N[C@@H](CCCNC(=N)N)C(=O)N[C@H](C(=O)N[C@@H](Cc1ccccc1)C(=O)N[C@@H](CCCNC(=N)N)C(=O)N[C@@H](CO)C(=O)N[C@@H](Cc1c[nH]cn1)C(=O)N[C@@H](CO)C(=O)N[C@@H](CC(=O)O)C(=O)N[C@@H](Cc1ccc(O)cc1)C(=O)N[C@@H](CCCNC(=N)N)C(=O)N[C@@H](CCCNC(=N)N)C(=O)N[C@H](C(=O)O)[C@@H](C)CC)[C@@H](C)O)[C@@H](C)O,,,"C57BL/6J mouse, MCD diet","intraperitoneal, 1.2 nmol/g, 3 weeks, 3 times weekly",,serum triglycerides,63.9 ± 10.5 mg/dL
COc1ccc(NC(=O)N2CCCN3CCC(c4ccc(C#Cc5cccc(C)c5)cc4)C3C2)cc1 (stereo not shown),Toxoplasma gondii,parasite growth,"HFF, RH type I luciferase",,,EC90,5.6 µM
CC(=O)OC[C@H]1O[C@@H](Sc2sc(C(=O)c3ccc(Br)cc3)c(N)c2-c2nc3ccccc3s2)[C@H](OC(C)=O)[C@@H](OC(C)=O)[C@@H]1OC(C)=O,SN12C,SRB,,"10 µM, 48 h",reference: untreated,growth,98%
COc1cc(CNC(=O)C[C@H](C)CCC=C(C)C)ccc1OCc1cn(-c2ccc(Cl)c(Cl)c2)nn1,SK-MEL-5 melanoma cells,SRB,,"10 µM, 48 h",,growth percent,71.9%
CC/C=C\C/C=C\C/C=C\C/C=C\C/C=C\C/C=C\CCC(=O)Nc1ccn(C2OC(CO)C(O)C2(F)F)c(=O)n1 (stereo not shown),SK-MEL-5,NCI60 screen,,,,TGI,17.1 µM

# Some of these lines once more:
Compound,tested on,test,system,setting,scale,measurement,value
COc1cc(CNC(=O)C[C@H](C)CCC=C(C)C)ccc1OCc1cn(-c2ccc(Cl)c(Cl)c2)nn1,SK-MEL-5 melanoma cells,SRB,,"10 µM, 48 h",,growth percent,71.9%
[C-]#[O+].[C-]#[O+].[C-]#[O+].[C-]#[O+].[C-]#[O+].[C-]#[O+].[Cl-].[Cl-].[Re+].[Re+].c1cnc(-c2ncccn2)nc1,calf thymus DNA,ethidium bromide displacement,,"DNA 120 µM, 50% quenching, together with: ethidium bromide 8 µM",,apparent binding constant,1.8e+06 M⁻¹
